Assay results of several laboratories.
Numbered parts are unrelated; each lists some results of a single study.

Sample 1 — method: protein-binding microarray; molecule type: double-stranded DNA, one strand shown; sample: in vitro; concentration: 0.8 µM; setting: whole 60-bp probe, no competitor; reading: higher = stronger binding; all sequences stand within: … GTCTTGATTCGCTTGACGCTGCTG
Target: Centromere-binding protein 1, full length, N-terminal tag (CBF1, Saccharomyces cerevisiae, UniProt P17106, residues 1-351)
Sequence of UniProt P17106 (whole entry, looked up): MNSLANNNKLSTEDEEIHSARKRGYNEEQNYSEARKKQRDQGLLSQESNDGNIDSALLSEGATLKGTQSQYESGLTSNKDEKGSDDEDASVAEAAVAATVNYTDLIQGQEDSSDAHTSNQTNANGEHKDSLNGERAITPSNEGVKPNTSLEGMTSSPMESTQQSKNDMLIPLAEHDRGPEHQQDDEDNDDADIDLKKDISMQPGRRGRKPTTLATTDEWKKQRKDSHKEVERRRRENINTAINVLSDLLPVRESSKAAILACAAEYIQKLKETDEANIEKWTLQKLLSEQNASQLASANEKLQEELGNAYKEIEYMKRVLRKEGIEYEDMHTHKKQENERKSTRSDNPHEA
Strand | fluorescence intensity
GAATTTGTATGTATGCGTGTGTTAACTATCCTGTAG | 565 a.u.
GAAAAAATTGACCTGCACATGGAGAAAGCGTAATAG | 601 a.u.
CTACCGGCCTCGTTATTCGTGATGCCTACTTAATTC | 507 a.u.
CTACTGCTCTCGCTCCACGTTGTCATCCCACCCTTC | 689 a.u.
GAAGTGTGTGTGTGATATGTGACGTGTATACGTTAG | 639 a.u.
CTACAGATGATTTTTCACATGATTTTTGTTAGATTC | 754 a.u.
GAACCAGTGGCACACACGTGAACTACATCACTCTAG | 1830 a.u.
CCTAACTACTATAGTCACATGCGATAGCTTCGTACA | 2190 a.u.
GAACTGCTCGATAGACCGATCACGTTTAATTTTTAG | 2860 a.u.
CTACCAACAAATCATCAGGTTAGTAGAATAATGTTC | 519 a.u.
GAAGTATATCGTCGTCACCGACGTAAGGTTTTTTAG | 495 a.u.
GAAAGATAATGCAACTCCACCACCAGCGCTCTATAG | 485 a.u.
GAATAACCTGCTCTACACCTGACTCACATGACATAG | 2470 a.u.
GAACTTTATTTATTGAACGTGTGATTCCCCTGATAG | 636 a.u.
CTATGAAAAAAGATGAACGTGTGAATGAAAAAATTC | 643 a.u.
GAACCTCTTGCTGTCCACATGTGTTGAGTGTCATAG | 782 a.u.
GAACTTATAAATGCGCACGTATTATTTTCATTTTAG | 546 a.u.
CTAAATAGAATCTTTAATGATCACAGTGGATCTTTC | 538 a.u.
CTATCATTCTTCTCTGATGCACGTTCTTTAGACTTC | 808 a.u.
CTATATTATATATGCCACATGACTGCAGGGTCCTTC | 1580 a.u.
GAATGTACGTAAGATCACATGATCGTATACTGTTAG | 7010 a.u.
CTACCATAACCAGATCGTCTGATGCTCTTTTTGTTC | 532 a.u.
GAATTCCGAGATCATCACGGGATTTGTCACGCATAG | 1630 a.u.
GAACATCCTAACGAGCACATGTCGGTGGACCAATAG | 747 a.u.
CTATGTTAATAGGCTCAGCTGTTCATAAAATATTTC | 591 a.u.

Sample 2 — method: RNA Bind-n-Seq; molecule type: RNA; sample: in vitro; concentration: not given; relative to: input RNA pool; reading: higher = stronger binding
Target: RING finger protein unkempt homolog, zinc fingers 1-6, GST-SBP tag (UNK, Homo sapiens, UniProt Q9C0B0, residues 30-357)
Setting: RNA with constant flanks, human and mouse sites, ends assumed
All sequences stand within: GGGAGUUCUACAGUCCGACGAUC … CAACAGAGGAUUGAGCAUCA
Residues (chain): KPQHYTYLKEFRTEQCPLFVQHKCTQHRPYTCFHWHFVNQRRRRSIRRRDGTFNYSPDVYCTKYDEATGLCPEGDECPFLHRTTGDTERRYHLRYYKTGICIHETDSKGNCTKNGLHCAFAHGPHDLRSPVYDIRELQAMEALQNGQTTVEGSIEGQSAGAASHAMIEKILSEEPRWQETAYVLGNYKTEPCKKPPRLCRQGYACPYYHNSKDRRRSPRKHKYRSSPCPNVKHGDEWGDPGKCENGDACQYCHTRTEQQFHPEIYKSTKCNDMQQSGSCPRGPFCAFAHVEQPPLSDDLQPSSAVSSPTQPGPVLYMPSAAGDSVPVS
Strand | bound/input enrichment [ratio]
AAGAUCAAAGAGAAGUACAUUGACCAGGAGGAGCUGAACAAGACAAAGCCUAUCUGGACCAGAAACCCGGAUGACAUCACGCAGGAGGAGUAUGGCGAAUUCUAUAAGAGCCUCACCAAU | 0.135
CAGUCCUGCGUUUCCUCCCUAAAUUCUAUUUUGUUAUUUGGUUUUCUUUACUCUGGUUUUUAGUAACAGGAUCACGUAUUAAAAUUUGCUGUUAAUUAAAGUUUACCUUUUGAUUUUACA | 0.442
GGGGUUCUUGCUGCCGUUCUAAUAUUUUUUUAAGCAUAGACAGACUUAUAAUUAAUAUACGUUAGUUAGUGACAUUGAAACAGUCAACUCGGAAAUUAACUAUAAGACUUGUUCUAUUUA | 0.916
AUCAAGUAUUUUGGGGAUAUUAUUAGCGUGGGACAGAGAUUGUUGCAAGGGGCCCGGAUUUUAGGAAUUCCUGUUAUUGUAACAGAACAAUACCCUAAAGGUCUUGGGAGCACGGUUCAA | 0.304
UGAUUUGCAAGUGGGGGGGAAAGCUACUGUGAGCGUGUGUUUUAUUUUUUAAAUUACACUAUAGAGUGAUUUCCCCCCCCCCCCAAUGUCAAGUUUUUACCCUGCAUGUACUGGAGUAUU | 1.32
UACCUCCAGAAGGCACUACUUCUAUCGUAGGGCGAGUCUAAUUGUUAGACAUUUCUUACUUAUAGUGAUUGGAUUCUGCUUUCCUAUGACUUCUGCCUACUGGGUCUUGUUUUGUUCCUU | 0.357
AACACACCCACUUCUCAGAUGAAAUUACAGAAGACACCCAGAUCACCUUUAGAGCCAGAAAAUGUGCCCAGUUUACUAUUGAAAGAAAAUGUGAAACAGACAGAAUCACAACAGACUGGG | 0.581
AAAUCAGAACGUCCAUGUGAUGAAGACAAGACUGAUUCAGAGACAGGAAAGUUGAUCAUGUUAGUCAAUGAGUUUUAUUAUGGAAGGCAUGAAGGAGUCACUGAGAAAGAGCCAAAGACU | 0.308
GCUGAUGCAAGUAAGGGUGAUGACCUGCUUCCUGCUGGCACUGAGGAUUAUAUCCAUAUAAGAAUUCAACAGAGAAACGGCAGGAAGACCCUUACCACUGUCCAAGGGAUCGCUGAUGAU | 0.0958
AAAAGCCGGGGAGGCUUUUUUAAUUCAUUUGAAUGUAUGAUUCUCGGACACUCCUUUUGACUUAGGGAUUUGCUUGAAUGCAUAAAGUCAAGAAGCAGAUAGGCUGGCAGGUUUCCAGGC | 0.424
GAAAAUGAAUUACAGAUUGAACAGGAAAAUGAAAAACAGCUGAAGGAUCAACUUCAAGAAAUAAGACAGAAAAUAACAGAAUGUGAAAACAAAUUAAAGGACUAUUUGGCACAGAUCCGG | 0.626

Sample 3 — method: RNA Bind-n-Seq; molecule type: RNA; sample: in vitro; concentration: 365 nM; relative to: no-protein control; reading: higher = stronger binding
Target: RNA binding protein fox-1 homolog 2, RRM domain, GST-SBP tag (RBFOX2, Homo sapiens, UniProt O43251-10, residues 100-194)
Setting: natural RNA segment, single round, ends assumed
All sequences stand within: GGGAGUUCUACAGUCCGACGAUC … UGGAAUUCUCGGGUGCCAA
Target sequence (chain): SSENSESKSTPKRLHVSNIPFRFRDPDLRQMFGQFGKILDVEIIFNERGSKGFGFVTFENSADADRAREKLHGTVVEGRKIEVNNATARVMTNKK
Strand | RBNS enrichment (R)
CAUGGACCCCCUGAGACUAUCAUUAUUACCUCCUAGGGCCAGGAAGCCAGGUAGGUAGUCUGAGUCAGGAUUGGAUCAACAGCCUCCUCUCUUGGGGACUCUCAAGAGCC | 0.376
CCAAAUUGGGACUAUUGAGAGAGAAAGGGGAUGCUAUUAAUUACACCAGAUCAAAAGGCAUAAACCAGACCUGUCCCAGGCCGAUGUGGAAAUAUGUUCUUUCUAGUUGU | 0.322
UCUGCAUUUGAUAUAAUGCCUUAAUUACUGGGUCUACAAUUAAUGUUGACUGUUUUAGAUUGUAAGCUCCUGGAGAGCAGUAUUGCUGUAGUAGGAAUGUUUUAACAGUG | 10.5
UAUGAGGGAGACAAAUGAGUUGAUAGUUUGAAUUAUAGGAUUUUUGCCACGUUACCUUGAUGCAAAUUUGCCAAAUCUGAUACUGUGAAAAGAUUUGAUAACUUUUCUAA | 0.876
UCAGUUGUGAAGGAGCAGGAGGUUUAGACGAUGAAGAAAUUCUUGACUGUUUUUCAGUUGCUAUAUCAUAUUUUAAAAGUUUCUUUUCUAGCUUGACACUGUACUAGCUU | 0.89
UUGAAAAUACUCAGUGUAGAUCUCUAUGUGUAUAGGUAUCUGUAUAUCUUUCCUUUUGUUUACAACUGUUAAAAAACCUCAAAAUAGUUCUCUUCAAAAGAAGAGAGAUU | 0.52
GGGCAGAGAGGGAAGGAGGGAGGAGGCAUCUUCCCUGAAGCCCCCAAUCUGGCCCCCCCCUCCCCAGACUUCCUCCCCAAAACACCCCAGCUUUCUGGCUUUUCUGAGGG | 0.281
UGUAGAAUUGUGAAUAUAACGAAACUGCAAAAAGUUAGUCUUAUGUAUAGACAUUAUUUUCGUCGUAUGUUUCUAUAUUUUGAAACAAAGGUAUGUAACUUCUUCAUUUG | 0.593
CAUUUUACAUAAGAAUUUUAAGUAUUUGCAAUAAAUAUAUGUAUAUAGAUUGUAUGUAUUCCUAUAUUCUUAUUUUUCAUUUUAUUAUUAAGUAAAAGAUCAUUAAAAGU | 0.777
CCCAAGAUCGAGUUGGCCGAGGAUGGAUGAUUGUGGCAGCAGAAGCCGUUGCAGCCCCACGUUGUGCUCUAGGCAGGGACCUUUGGCCCCUUUGGGGAGGGAGAGACAGA | 0.266
UAUAAAAGUGCGGUGUAACCAUAGACCAUAGCUGCAGGAUAACCAAUUAGUCACUCUUAGAGUAAUCUGUAUUCAGAACAAUUCAAACAAGCUGGAGGAACAGCUCCUGA | 0.474
UAUGUGUGCUAUUAAUUCAUAGAAAAUUAAUUUUAAAAAAUAUAAGGAAUAAAUCCAGUGAAGAAUGGUUGUUGAUCAUCUAUCCAAAGUCCCAGGUUUAAAAAGCAAAG | 0.719

Sample 4 — method: aptamer microarray, sandwich; molecule type: DNA with 2'F-ANA; sample: in vitro; concentration: 200 nM; with: Cy3 exosite-II aptamer, 400 nM; reading: higher = stronger binding; strand: GGTTGGTGTGGTTGG
Target: Prothrombin, mature alpha-thrombin (F2, Homo sapiens, UniProt P00734)
Setting: whole 15-mer aptamer, many near background
Modification | mean fluorescence intensity
2'F-ANA at 3 4 5 8 9 12 13 14 | 96.9 a.u.
2'F-ANA at 2 4 5 6 10 11 12 14 15 | 50.4 a.u.
2'F-ANA at 3 12 13 14 | 602 a.u.
2'F-ANA at 1 3 5 6 8 9 12 14 | 50.7 a.u.
2'F-ANA at 3 7 9 10 12 | 690 a.u.
2'F-ANA at 3 4 5 8 9 11 12 14 15 | 73 a.u.
2'F-ANA at 1 3 4 6 8 9 10 11 12 14 15 | 89.5 a.u.
2'F-ANA at 1 3 5 7 9 15 | 69.7 a.u.
2'F-ANA at 5 9 11 13 15 | 51.8 a.u.
2'F-ANA at 2 3 4 5 6 7 8 11 12 | 159 a.u.
2'F-ANA at 1 2 4 11 12 | 231 a.u.
2'F-ANA at 3 4 6 7 8 12 14 15 | 333 a.u.
2'F-ANA at 1 5 6 7 8 9 10 12 | 49.1 a.u.
2'F-ANA at 2 7 8 9 11 12 13 14 | 151 a.u.
2'F-ANA at 1 2 3 4 5 8 10 11 13 15 | 49.6 a.u.
2'F-ANA at 1 4 6 7 8 9 11 13 14 15 | 49.1 a.u.
2'F-ANA at 1 6 7 8 9 12 13 14 | 68.2 a.u.
2'F-ANA at 1 2 9 13 15 | 152 a.u.
2'F-ANA at 3 5 10 11 12 13 14 15 | 55.6 a.u.
2'F-ANA at 2 3 8 12 13 14 15 | 522 a.u.
2'F-ANA at 1 3 4 5 6 9 11 12 15 | 89.5 a.u.
